{"data": "Results gathered from unrelated publications", "note": "A part holds a random share of what one study measured. Substitutions count along the parent as printed.", "sequence of UniProt Q16659 (whole entry, looked up)": "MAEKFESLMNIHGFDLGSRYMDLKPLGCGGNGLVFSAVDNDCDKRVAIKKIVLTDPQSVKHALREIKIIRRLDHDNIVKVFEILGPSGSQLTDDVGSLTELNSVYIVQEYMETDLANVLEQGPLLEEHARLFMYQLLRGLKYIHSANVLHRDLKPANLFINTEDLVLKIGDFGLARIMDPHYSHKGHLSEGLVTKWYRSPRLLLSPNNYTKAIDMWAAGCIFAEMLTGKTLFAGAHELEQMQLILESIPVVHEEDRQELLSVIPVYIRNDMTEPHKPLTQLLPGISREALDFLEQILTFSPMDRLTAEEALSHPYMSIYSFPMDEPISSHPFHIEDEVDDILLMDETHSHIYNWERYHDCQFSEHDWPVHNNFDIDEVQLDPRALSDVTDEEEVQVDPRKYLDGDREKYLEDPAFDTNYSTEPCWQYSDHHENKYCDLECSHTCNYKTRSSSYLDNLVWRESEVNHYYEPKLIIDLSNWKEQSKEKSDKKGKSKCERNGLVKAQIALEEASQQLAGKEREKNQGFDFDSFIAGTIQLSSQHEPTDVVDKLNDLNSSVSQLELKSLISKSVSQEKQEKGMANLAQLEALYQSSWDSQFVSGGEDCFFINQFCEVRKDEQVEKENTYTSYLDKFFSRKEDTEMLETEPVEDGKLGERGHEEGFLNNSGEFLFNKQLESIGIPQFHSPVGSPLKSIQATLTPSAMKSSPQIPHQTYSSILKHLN", "sequence of UniProt P21802 (whole entry, looked up)": "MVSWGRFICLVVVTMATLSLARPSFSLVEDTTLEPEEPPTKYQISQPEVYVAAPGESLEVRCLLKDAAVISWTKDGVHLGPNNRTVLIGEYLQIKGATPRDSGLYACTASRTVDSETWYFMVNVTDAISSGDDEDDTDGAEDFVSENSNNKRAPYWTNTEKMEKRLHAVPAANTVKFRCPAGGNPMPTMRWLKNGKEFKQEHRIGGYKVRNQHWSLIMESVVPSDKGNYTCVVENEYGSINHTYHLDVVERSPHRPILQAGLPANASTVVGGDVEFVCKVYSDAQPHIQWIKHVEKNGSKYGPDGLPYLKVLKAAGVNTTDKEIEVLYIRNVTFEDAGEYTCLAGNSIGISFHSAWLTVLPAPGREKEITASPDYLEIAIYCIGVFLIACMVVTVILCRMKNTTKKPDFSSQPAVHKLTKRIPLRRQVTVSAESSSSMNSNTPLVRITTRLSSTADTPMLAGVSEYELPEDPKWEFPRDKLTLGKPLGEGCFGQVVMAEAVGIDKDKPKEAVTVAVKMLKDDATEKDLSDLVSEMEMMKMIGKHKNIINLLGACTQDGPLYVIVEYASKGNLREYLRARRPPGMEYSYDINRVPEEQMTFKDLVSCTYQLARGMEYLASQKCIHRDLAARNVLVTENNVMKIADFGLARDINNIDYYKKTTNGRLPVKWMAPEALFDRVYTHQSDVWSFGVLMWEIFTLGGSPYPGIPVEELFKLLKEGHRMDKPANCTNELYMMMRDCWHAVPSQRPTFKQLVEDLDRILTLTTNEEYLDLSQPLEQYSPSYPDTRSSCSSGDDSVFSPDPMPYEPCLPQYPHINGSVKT", "sequence of UniProt P23975 (whole entry, looked up)": "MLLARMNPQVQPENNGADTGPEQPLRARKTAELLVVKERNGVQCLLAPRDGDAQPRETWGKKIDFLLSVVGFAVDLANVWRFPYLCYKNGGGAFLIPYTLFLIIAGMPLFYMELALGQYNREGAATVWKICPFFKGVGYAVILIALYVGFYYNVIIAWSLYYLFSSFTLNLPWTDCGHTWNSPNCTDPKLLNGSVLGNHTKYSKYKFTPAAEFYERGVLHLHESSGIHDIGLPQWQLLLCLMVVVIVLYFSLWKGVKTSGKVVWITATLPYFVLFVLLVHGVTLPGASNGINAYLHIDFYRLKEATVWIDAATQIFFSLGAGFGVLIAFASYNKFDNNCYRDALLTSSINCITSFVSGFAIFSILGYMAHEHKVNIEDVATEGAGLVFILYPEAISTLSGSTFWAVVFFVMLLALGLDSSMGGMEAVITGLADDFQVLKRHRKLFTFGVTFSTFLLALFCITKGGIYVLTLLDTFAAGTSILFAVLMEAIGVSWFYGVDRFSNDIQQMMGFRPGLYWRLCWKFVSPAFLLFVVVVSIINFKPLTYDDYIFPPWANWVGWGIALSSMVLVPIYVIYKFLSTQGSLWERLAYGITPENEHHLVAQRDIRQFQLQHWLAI"}
{"data": "Set 1", "Compound": "CNC(=O)c1ccc(-c2cnn3ccc(C(=O)N(C)c4ccc(Cl)c(C(=O)OC)c4)cc23)cc1"}
{"target": "SLC6A2 (Homo sapiens, UniProt P23975)", "effect on": "cell-free assay", "IC50": "> 30 µM"}
{"target": "FGFR2 (Homo sapiens, UniProt P21802)", "effect on": "enzyme activity", "action": "inhibitor", "IC50": "> 30 µM"}
{"target": "human phosphodiesterase 3", "effect on": "enzyme activity", "IC50": "> 30 µM"}
{"data": "Set 2", "target": "CCNE2, cyclin fold, Cln2 fusion (human)", "technique": "yeast growth competition, sequencing", "medium": "yeast", "notes": "strong parent motif", "baseline": "not given", "direction": "higher = stronger binding", "starting sequence": "viral docking peptide; TSVRRALFTGGSD; partner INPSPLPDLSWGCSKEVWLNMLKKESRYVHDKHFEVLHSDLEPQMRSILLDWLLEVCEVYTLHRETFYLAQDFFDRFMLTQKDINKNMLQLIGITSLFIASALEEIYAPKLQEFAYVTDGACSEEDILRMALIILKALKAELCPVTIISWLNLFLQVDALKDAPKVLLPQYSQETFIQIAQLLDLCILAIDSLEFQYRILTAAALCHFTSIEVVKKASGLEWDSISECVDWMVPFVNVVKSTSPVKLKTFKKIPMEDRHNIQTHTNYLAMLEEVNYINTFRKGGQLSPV"}
{"Change": "L7M", "normalised enrichment score": 0.295}
{"Change": "R5Q", "normalised enrichment score": 0.275}
{"Change": "R4V", "normalised enrichment score": 3.45}
{"Change": "T9E", "normalised enrichment score": 2.5}
{"Change": "R4M", "normalised enrichment score": 0.866}
{"Change": "T9D", "normalised enrichment score": 2.57}
{"Change": "F8D", "normalised enrichment score": 0.249}
{"Change": "S12I", "normalised enrichment score": 3.79}
{"data": "Set 3", "target": "UDP-N-acetylglucosamine--peptide N-acetylglucosaminyltransferase 110 kDa subunit (OGT, Homo sapiens, UniProt O15294)", "effect on": "binding", "technique": "phage display NGS", "molecule type": "peptide", "concentration": "concentration not given", "baseline": "input library", "sequence of UniProt O15294 (whole entry, looked up)": "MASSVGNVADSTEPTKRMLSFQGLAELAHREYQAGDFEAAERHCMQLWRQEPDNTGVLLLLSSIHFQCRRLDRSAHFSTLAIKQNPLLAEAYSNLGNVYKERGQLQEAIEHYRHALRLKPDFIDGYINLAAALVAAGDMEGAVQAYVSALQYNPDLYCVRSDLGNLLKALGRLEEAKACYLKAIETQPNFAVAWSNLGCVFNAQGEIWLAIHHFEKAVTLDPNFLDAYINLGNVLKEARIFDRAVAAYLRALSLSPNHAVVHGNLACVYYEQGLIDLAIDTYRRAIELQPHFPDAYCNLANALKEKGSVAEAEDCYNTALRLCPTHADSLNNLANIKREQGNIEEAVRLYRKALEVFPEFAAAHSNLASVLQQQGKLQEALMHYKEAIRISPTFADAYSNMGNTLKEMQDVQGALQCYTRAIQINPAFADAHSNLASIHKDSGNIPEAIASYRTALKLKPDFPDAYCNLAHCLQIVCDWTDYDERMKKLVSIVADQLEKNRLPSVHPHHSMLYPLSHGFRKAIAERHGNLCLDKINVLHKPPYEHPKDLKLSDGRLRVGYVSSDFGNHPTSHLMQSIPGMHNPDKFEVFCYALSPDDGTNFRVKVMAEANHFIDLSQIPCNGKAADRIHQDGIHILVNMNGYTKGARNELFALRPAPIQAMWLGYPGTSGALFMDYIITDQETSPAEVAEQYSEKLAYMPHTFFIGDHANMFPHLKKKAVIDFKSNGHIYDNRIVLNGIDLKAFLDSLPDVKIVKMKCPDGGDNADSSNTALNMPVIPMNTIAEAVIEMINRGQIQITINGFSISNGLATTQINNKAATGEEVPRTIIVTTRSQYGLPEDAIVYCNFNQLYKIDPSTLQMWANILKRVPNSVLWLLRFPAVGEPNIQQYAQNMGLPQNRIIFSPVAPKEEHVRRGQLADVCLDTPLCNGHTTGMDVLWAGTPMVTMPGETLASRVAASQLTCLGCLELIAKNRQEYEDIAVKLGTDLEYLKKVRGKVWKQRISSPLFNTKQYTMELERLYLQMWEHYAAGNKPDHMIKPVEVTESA"}
{"Molecule": "HSYHHDTVITHNTHH", "enrichment fold change": 7.56}
{"Molecule": "EMEVYDYFPFYQIQV", "enrichment fold change": 3.11}
{"Molecule": "QDTTFAPFYQIIAPP", "enrichment fold change": 3.09}
{"Molecule": "QHITHYHFTHQFDTH", "enrichment fold change": 3.55}
{"Molecule": "HTAIMNRHQYHMHVN", "enrichment fold change": 4.18}
{"Molecule": "ENVVWPHYHHHSTYI", "enrichment fold change": 3.93}
{"Molecule": "HYHPNHHGSYSLRN", "enrichment fold change": 7.08}
{"Molecule": "QHSQHVHFTHRGEGH", "enrichment fold change": 5.95}
{"data": "Other studies, line by line"}
{"Compound": "Cn1cncc1[C@](O)(COc1ccc(C#N)cc1-c1ccc(OC(F)(F)F)cc1)c1ccc(C#N)cc1", "target": "Mitogen-activated protein kinase 6 (MAPK6, Homo sapiens, UniProt Q16659)", "effect on": "cell-free assay", "technique": "competition with immobilised ligand", "concentration": "1 µM", "measurement": "remaining binding", "value": "85%"}
{"note": "A few entries again (set 1):"}
{"target": "SLC6A2 (Homo sapiens, UniProt P23975)", "effect on": "cell-free assay", "IC50": "> 30 µM"}
{"target": "FGFR2 (Homo sapiens, UniProt P21802)", "effect on": "enzyme activity", "action": "inhibitor", "IC50": "> 30 µM"}
